Assay results collected from several papers.
A part holds a random share of what one study measured. “And” joins repeats or separate records; there may be more than shown.
Chain of UniProt P30530 (whole entry, looked up): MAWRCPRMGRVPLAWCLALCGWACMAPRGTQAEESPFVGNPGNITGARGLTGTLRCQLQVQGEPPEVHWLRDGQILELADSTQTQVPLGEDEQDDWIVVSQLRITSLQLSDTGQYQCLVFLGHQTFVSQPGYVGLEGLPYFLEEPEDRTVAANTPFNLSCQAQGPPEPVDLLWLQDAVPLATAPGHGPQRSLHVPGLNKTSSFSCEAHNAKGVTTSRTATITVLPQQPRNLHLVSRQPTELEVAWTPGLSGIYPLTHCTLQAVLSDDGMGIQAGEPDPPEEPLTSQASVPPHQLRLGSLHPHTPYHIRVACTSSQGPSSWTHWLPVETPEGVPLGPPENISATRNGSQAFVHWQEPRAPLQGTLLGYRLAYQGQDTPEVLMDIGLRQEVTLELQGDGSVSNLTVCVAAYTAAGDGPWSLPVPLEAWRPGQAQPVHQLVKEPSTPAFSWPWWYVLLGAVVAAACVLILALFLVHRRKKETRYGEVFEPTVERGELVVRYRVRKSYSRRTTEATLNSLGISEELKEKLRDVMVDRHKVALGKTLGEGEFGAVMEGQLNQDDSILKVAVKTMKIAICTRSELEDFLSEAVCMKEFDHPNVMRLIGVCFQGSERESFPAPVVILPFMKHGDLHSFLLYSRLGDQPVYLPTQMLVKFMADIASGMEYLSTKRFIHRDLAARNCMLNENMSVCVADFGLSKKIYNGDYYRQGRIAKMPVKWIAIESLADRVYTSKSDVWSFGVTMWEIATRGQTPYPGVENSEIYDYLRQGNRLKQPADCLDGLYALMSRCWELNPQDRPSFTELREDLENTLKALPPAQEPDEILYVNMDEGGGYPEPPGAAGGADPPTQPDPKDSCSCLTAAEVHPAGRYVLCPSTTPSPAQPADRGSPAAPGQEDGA
Chain of UniProt O75914 (whole entry, looked up): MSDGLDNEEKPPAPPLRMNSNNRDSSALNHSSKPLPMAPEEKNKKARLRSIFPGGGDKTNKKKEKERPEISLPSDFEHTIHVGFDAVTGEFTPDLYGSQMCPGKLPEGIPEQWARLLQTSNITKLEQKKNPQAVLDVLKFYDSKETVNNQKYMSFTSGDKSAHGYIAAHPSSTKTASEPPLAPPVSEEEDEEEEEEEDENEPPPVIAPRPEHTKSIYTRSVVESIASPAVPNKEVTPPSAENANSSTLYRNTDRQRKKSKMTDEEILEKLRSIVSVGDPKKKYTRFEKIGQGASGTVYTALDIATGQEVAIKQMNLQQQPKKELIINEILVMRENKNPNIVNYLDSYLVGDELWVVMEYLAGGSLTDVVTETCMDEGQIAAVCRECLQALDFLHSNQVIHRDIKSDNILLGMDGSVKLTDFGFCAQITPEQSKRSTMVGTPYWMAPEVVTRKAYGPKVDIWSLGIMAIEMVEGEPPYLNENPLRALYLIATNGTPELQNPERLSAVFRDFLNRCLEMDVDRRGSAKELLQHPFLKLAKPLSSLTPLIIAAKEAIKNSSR
Chain of UniProt Q15139 (whole entry, looked up): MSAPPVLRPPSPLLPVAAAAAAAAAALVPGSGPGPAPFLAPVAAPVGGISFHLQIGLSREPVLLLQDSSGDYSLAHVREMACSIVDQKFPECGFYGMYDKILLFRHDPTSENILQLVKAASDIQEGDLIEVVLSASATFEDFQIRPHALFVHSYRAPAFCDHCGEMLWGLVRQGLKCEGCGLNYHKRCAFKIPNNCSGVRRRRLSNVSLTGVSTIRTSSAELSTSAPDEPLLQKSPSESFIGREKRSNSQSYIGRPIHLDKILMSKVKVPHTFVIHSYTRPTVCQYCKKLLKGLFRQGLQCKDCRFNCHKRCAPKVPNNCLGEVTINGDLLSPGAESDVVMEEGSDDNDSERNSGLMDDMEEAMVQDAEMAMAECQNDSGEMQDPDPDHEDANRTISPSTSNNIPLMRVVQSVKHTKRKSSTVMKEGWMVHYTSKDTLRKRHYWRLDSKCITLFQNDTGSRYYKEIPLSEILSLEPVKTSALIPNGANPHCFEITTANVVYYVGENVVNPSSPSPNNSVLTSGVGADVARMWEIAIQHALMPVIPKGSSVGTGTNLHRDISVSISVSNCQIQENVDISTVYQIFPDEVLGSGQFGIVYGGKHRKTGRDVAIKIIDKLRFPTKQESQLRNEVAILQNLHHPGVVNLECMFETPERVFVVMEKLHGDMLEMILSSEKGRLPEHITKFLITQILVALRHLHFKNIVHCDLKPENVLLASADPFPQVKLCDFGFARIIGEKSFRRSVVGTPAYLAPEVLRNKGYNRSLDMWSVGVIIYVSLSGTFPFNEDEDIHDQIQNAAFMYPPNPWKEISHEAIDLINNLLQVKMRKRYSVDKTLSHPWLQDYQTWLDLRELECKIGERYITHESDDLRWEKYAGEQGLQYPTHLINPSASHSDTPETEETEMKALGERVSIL
Chain of UniProt Q13164 (whole entry, looked up): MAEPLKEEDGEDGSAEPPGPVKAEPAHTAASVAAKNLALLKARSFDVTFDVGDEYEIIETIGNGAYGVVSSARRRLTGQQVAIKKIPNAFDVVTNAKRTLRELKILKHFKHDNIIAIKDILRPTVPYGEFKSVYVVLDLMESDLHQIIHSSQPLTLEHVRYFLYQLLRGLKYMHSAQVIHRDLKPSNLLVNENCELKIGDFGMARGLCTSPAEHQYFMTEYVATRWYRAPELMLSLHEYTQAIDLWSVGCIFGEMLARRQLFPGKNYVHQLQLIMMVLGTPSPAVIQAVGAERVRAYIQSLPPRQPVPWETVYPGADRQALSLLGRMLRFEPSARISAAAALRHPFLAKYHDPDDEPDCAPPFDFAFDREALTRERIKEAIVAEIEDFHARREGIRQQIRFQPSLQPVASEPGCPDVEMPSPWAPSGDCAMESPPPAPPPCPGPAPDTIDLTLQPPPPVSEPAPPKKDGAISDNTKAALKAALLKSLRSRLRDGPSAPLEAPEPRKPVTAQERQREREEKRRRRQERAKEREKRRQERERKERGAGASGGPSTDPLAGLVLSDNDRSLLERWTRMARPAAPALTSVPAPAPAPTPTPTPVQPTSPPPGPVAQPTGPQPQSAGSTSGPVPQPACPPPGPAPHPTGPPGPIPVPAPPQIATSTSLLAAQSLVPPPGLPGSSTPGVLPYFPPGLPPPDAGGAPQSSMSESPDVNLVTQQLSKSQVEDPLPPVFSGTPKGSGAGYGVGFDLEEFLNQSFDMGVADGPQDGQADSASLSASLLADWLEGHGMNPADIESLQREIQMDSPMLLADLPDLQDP
Chain of UniProt Q9BZL6 (whole entry, looked up): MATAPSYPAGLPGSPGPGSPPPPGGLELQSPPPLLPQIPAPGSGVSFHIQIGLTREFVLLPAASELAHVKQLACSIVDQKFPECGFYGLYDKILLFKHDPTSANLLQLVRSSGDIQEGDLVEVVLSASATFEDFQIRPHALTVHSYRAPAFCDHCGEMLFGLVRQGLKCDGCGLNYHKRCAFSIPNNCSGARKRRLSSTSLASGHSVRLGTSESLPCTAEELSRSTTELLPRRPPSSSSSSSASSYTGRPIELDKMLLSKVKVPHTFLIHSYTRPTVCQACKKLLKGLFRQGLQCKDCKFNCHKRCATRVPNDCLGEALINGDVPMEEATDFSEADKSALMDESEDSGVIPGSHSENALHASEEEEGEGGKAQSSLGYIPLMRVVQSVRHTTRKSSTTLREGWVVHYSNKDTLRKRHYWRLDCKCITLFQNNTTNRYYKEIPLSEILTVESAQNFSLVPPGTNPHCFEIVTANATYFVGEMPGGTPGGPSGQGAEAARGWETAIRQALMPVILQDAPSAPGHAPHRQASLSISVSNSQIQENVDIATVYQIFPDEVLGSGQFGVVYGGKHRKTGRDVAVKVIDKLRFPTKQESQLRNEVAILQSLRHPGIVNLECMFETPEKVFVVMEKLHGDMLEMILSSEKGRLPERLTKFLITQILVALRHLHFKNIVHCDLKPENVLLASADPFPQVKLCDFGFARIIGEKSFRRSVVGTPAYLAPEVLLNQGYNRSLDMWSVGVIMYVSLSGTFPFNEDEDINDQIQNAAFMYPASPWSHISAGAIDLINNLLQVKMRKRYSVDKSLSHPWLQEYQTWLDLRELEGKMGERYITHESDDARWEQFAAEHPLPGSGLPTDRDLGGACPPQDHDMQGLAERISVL
Chain of UniProt P24723 (whole entry, looked up): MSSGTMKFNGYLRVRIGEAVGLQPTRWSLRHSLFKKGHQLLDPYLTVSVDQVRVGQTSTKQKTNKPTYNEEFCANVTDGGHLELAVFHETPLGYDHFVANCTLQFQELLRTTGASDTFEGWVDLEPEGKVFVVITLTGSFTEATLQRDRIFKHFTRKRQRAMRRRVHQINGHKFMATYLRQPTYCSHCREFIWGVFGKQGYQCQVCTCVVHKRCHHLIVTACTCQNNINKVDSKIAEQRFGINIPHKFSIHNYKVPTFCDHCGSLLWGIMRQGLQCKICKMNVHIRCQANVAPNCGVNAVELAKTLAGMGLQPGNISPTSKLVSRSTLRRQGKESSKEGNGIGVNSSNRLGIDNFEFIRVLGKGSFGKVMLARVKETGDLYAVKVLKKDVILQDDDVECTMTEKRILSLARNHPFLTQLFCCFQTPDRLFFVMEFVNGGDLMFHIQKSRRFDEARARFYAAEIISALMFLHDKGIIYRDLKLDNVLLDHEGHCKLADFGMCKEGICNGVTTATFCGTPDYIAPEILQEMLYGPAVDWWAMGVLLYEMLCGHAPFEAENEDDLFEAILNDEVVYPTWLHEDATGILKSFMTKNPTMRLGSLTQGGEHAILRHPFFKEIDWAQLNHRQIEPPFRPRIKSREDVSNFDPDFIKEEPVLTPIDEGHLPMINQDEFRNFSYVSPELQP

Block 1
Compound: COc1ccc(-c2c(Nc3ccccn3)[nH]c3c(C4=CCCCC4)c(-c4ccccc4)nn3c2=O)cc1
Host: human patients
Medium: plasma
| test | setting | median concentration [ng/mL] |
| --- | --- | --- |
| refers to: methionine | 200 mg once daily, 2 h | 106000 |
| refers to: S-adenosylmethionine | 200 mg once daily, 8 h | 14.9 |
| refers to: S-adenosylmethionine | 100 mg once daily, 4 h | 14.9 |

Block 2
Host: human
Medium: microsomes or S9
Concentration: 2 µM
Time: 0.5 h
| Structure (SMILES) | remaining compound |
| --- | --- |
| O=S1(=O)N=C(Nc2cccc3[nH]ccc23)c2ccccc21 | 73.1% |
| CCn1nc(-c2cc(C)ccc2Cl)nc1N(C)C | 5.25% |
| COCCNC(=O)[C@@H]1C[C@H](Oc2cccnc2)CN1C(=O)c1ccc(OC)nc1OC | 69.3% |

Block 3
Substance: PhoQ, residues 284 288 289 292 302 303 TLASMF
Method: Sort-seq
Refers to: YFP reporter
Medium: E. coli
Setting: PhoQ-PhoP variant library
Added: 10 µM Mg2+
Relative to: high Mg2+ state
Direction: higher = stronger signaling
| target | fold induction |
| --- | --- |
| PhoP, residues 12 14 15 18 19 QYCSL (Escherichia coli, UniProt P23836) | 3.2 |
| PhoP, residues 12 14 15 18 19 STHWV (Escherichia coli, UniProt P23836) | 8.92 |
| PhoP, residues 12 14 15 18 19 SHWTV (Escherichia coli, UniProt P23836) | 8.81 |

Block 4
Compound: C[C@@H]1CN(c2cc(-c3nn(C)c4ccc(OC5(C)CC5)cc34)ncn2)C[C@H](C)O1
Effect on: cell-free assay
Method: competition with immobilised ligand
Concentration: 1 µM
| target | remaining binding |
| --- | --- |
| MAPK7 (Homo sapiens, UniProt Q13164) | 76% |
| MINK1 (Homo sapiens, UniProt Q8N4C8) | 66% |
| PRKD1 (Homo sapiens, UniProt Q15139) | 82% |
| PRKD2 (Homo sapiens, UniProt Q9BZL6) | 90% |
| TLK1 (Homo sapiens, UniProt Q9UKI8) | 100% |
| HUNK (Homo sapiens, UniProt P57058) | 100% |
| CAMKK1 (Homo sapiens, UniProt Q8N5S9) | 80% |
| PRKCH (Homo sapiens, UniProt P24723) | 100% |
| PIK3CA (Homo sapiens, UniProt P42336, C420R) | 100% |
| Tyrosine-protein kinase ABL1, non-phosphorylated (ABL1, Homo sapiens, UniProt P00519, Q252H) | 93% |
| AXL (Homo sapiens, UniProt P30530) | 100% |
| PAK3 (Homo sapiens, UniProt O75914) | 100% |
| STK26 (Homo sapiens, UniProt Q9P289) | 74% |
| MAPK15 (Homo sapiens, UniProt Q8TD08) | 72% |
| NUAK2 (Homo sapiens, UniProt Q9H093) | 68% |
| MAP2K3 (Homo sapiens, UniProt P46734) | 70% |

Block 5
SMILES: CC(=O)N[C@@H](Cc1c[nH]c2ccccc12)C(=O)N[C@@H](CCC(=O)C=[N+]=[N-])C(=O)OC(C)C
Medium: EL4 tumour
Dose: dose not given
Relative to: vehicle
| test | system | log2 fold change |
| --- | --- | --- |
| refers to: 1-methylnicotinamide | mouse, EL4 tumour-bearing | 0.669 |
| metabolomics, refers to: 2,3-dihydroxy-2-methylbutyrate | mouse | -1.19 |
| refers to: mannonate* | mouse, EL4 tumour-bearing | 0.128 |

Block 6
Target: Sal-like protein 4, full length isoform B (SALL4, Homo sapiens, UniProt Q9UJQ4-2, residues 1-616)
Method: universal PBM
Molecule type: double-stranded DNA, one strand shown
Medium: in vitro
Concentration: not given
Setting: 8-mer, flanks averaged, mean of replicates
Direction: higher = stronger binding
Target sequence (chain): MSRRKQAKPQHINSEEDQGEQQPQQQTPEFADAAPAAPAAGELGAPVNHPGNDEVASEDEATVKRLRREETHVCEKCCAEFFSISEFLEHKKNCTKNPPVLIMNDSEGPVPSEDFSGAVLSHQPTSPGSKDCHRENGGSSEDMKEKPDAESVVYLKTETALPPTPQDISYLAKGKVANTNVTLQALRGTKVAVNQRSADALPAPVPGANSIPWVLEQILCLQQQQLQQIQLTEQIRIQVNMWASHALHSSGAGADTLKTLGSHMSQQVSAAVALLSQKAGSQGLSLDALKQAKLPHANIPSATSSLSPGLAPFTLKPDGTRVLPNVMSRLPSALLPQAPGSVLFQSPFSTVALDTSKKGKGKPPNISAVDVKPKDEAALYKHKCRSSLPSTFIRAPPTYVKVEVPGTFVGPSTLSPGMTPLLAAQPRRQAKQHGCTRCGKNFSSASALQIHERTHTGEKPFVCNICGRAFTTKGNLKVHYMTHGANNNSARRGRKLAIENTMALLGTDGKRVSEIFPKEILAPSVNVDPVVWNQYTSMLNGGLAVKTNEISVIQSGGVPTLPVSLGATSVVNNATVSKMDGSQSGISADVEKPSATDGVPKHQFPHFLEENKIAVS
| Oligonucleotide | E-score |
| --- | --- |
| GGTCGTAC | -0.199 |
| AAGACCTG | -0.209 |
| AGAGTAGC | -0.154 |
| CACTGTAA | 0.142 |
| CGACGCCC | -0.116 |
| AATCCAGT | -0.0334 |
| CTCGGCAC | -0.35 |
| ATTGCACC | 0.099 |

Further values, each from its own experiment
| Compound | target or system | test | system | setting | quantity | result |
| --- | --- | --- | --- | --- | --- | --- |
| O=C1CCC(N2Cc3cc(C4CCN(Cc5ccccc5)CC4)ccc3C2=O)C(=O)N1 (stereo not drawn) |  |  | male ICR mice, plasma | intravenous, 1.0 mg/kg | clearance | 51.3 mL/min/kg and 38.5 mL/min/kg |
| CCN(CC)CCCCN1c2ccccc2Oc2ccc(Cl)cc21 | PIM2 (Homo sapiens, UniProt Q9P1W9) | enzyme activity, inhibitor, radiometric |  |  | IC50 | > 30 µM |
| CC(C)n1cnc(-c2ccc(F)cc2)c1-c1ncc(C(=O)Nc2ccc(N3CCN(C)CC3)cc2)[nH]1 |  | phase 2a trial | idiopathic pulmonary fibrosis patients | dose not given, adverse event grade 5, all dose arms pooled | patients with ALT increased | 0% |

Some of these lines once more (block 1):
| test | setting | median concentration [ng/mL] |
| --- | --- | --- |
| refers to: methionine | 200 mg once daily, 2 h | 106000 |
| refers to: S-adenosylmethionine | 200 mg once daily, 8 h | 14.9 |
| refers to: S-adenosylmethionine | 100 mg once daily, 4 h | 14.9 |
